Measured values of several laboratories.
A part holds a random share of what one study measured.

Study 1 — method: RNA Bind-n-Seq; molecule type: RNA; medium: in vitro; tested at: 200 nM; notes: whole 134-nt RNA, ends assumed; together with: 150 mM LiCl; reference: input library; reading: higher = stronger binding; measurement: log2 enrichment; each molecule: 7-deaza-guanosine replaces G
Target: Fragile X messenger ribonucleoprotein 1, C-terminal low-complexity region (Fmr1, Mus musculus, UniProt P35922)
Constant ends, left off below: GGGAGUUCUACAGUCCGACGAUC … UGGAAUUCUCGGGUGUCAAGG
UCCUGUGCUACACAUCGUAUGUACCGAAUCGGAAAAAAGGGAAAAAAGGGGAAAAAAGGGAAAGUAUUAUGUUACGCCGUUCGGAUCUGC: -0.793
CAAGUCCUGUGCUACACAUCGUAUGUACCGAAUCGGAAAAAGGAAAAAGGAAAGGAAAGUAUUAUGUUACGCCGUUCGGAUCUGCACUUC: -1.13
CAAGUCCUGUGCUACACAUCGUAUGUACCGAAUCGGGGAAAGGAAAGGAAAGGGGAAAGUAUUAUGUUACGCCGUUCGGAUCUGCACUUC: -0.114
AGUCCUGUGCUACACAUCGUAUGUACCGAAUCGGGCCCCGGGGCCCCGGGCCCCGGGAAAGUAUUAUGUUACGCCGUUCGGAUCUGCACU: -1.04
UUUUAAAGUGUUCUCCACCACACUUGGGCAUUUAUCUGUUUCUUUAAAUGGCCUUCUCUGUUUCUUGUUUGCAGGCAGCUAUCAAUGGUG: 1.34
UAACUUUAGAGGAGGAUCUGAUGGAAAUGGCAGUGGACGUGGAUUUGGGGAUGGCUAUAAUGGGUAUGGAGGAGGACCUGGAGGUGGCAA: 0.0789
UGGGAGGUGGAUUUUGUUUAUUUUUUUAGCUCGUUUCCAGGGGUGGGAAUUUUUUUUUAAUAUGUGUCAUGAAUAAAGUUGUUUUUGAAA: 0.609
AGUCCUGUGCUACACAUCGUAUGUACCGAAUCGGGGUUUUUGGGGAAAGGGGAGGGGAAAGUAUUAUGUUACGCCGUUCGGAUCUGCACU: -0.373
UAACUUUAGAGGAGGAUCUGAUGGAUAUGGCAGUGGACGUGGAUUUGGGGAUGGCUAUAAUGGGUAUGGAGGUGGACCUGGAGGUGGCAA: 0.51
UGGCCCUGGUGGCAUGCGGGAAGGAAGAGGUGGCCUCAUGGAUCGUGGUGGUCCCGGUGGAAUGUUCAGAGGUGGCCGUGGUGGAGACAG: 0.3
CAAGUCCUGUGCUACACAUCGUAUGUACCGAAUCGGGUUUGGGUGGGAAAAAGGGAAAGUAUUAUGUUACGCCGUUCGGAUCUGCACUUC: -0.748

Study 2 — method: EMSA with sequencing; molecule type: double-stranded DNA, one strand shown; medium: in vitro; tested at: 10 and 20 nM; reference: negative control set to 0; reading: higher = stronger binding; measurement: normalised bound fraction
Target: Hepatocyte nuclear factor 3-alpha (Foxa1, Mus musculus, UniProt P35582, residues 1-468, full length assumed)
Notes: whole designed probe, mean of two concentrations, ends assumed
Constant ends, left off below: GTGAGCGGTGCCCATTGATGGGGAAC … TTTCACTGGGATCGTGGGGAC
Target sequence (chain): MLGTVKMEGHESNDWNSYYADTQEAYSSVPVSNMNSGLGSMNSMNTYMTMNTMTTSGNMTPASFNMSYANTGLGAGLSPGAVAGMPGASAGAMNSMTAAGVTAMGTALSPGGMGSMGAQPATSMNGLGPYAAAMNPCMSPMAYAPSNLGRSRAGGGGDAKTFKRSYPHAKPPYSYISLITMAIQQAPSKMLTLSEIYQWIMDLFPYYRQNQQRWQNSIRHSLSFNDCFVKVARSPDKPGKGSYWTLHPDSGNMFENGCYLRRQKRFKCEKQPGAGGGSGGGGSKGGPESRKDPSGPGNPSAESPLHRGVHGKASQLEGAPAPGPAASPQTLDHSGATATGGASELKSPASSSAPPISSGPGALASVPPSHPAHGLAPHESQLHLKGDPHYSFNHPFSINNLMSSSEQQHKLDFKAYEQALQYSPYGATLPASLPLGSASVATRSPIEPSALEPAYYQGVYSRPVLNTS
TACTGACTTTATAAGATTTATTTAGTTCCTTTTTTTGACAAAGGTAAAACTTCTTGGACGATTATTAAGGTGCCAGATAAATAGAAGGGGTTAAAATTACACAATTGGCAATGTCTAGCATATAGTAGATCCCCAGTAGGAGGTTGCTTTTGTAACTGTTATTATAATGATCACGAACGCCATCATTCTCACC: 0.0452 ratio
TGTGTGTGCGCGCGCGTGTGTGTGTGTTTTCTTAAGCCGGGCTATTCAAACCCTGCTGCAATTCTCCGGTAAACAATGATTCATGGGGCATAATGCAAATAAACGGATTGCAAACGGCGCGGTTCGCGCACTTTGCAGCCGGCCCGGTGGAGCAGCCAGTGCCGGATTTCTCCCTTTTTTTGCAGATCTGCAG: 0.435 ratio
ACATTTGACAAACTTCAACACCCTTTCATGACAAAAACACTTATAGAAGGAAACAACCTCAACATAATAAAAGCCATATATGAAAAACCCACAGCAATCTTCACACTCCATGGTGAACGTCTGAAAGCTTTTTCTCTAAAAATCAAGAACAAGGCAAAGATGCTCAATTTCACCACTTCTATTCAACGTAGTT: -0.0381 ratio
GGCTCCAAACGGCTGAATCAGCATTTTCAGAAACAAAGTGTTCTAGGCCTGGCCTTTTAAACAGCAGCAACGAGCAAGTTGTGCAATAACGCAAAATTACTCACGAGCTCTCCTTGTTTTGGTCTTTCCCCCCTCCCCCCCATCTCTTGAATGAAACTGGGCACCAAGTTTGCAAGAAAATATTCTTTCAAAC: -0.0551 ratio
ATCTTCCCCCTCTTCCTTGCCCCACCAGCTCACCTACGGGGGTTATTTGCACAAAGGAAAATAAATAAAGCCGGCATTCGTTAACGCAGTTCACGCGCATACTGCTGTTTGCTCTGCATGAATCATGGTCCTTACGCGACGCCAGGCTCCGGGAGAGCAAAGCACCGTGTCAGGCGCATGATCCGGGCTCGCC: 0.393 ratio
AATCCAGCTACCTATCTTCAGTTCCTTGGCCTTCAGCTGGCAGTGAAACAGACACATCAGCTTTAAGACTGGCAGCCAAATAGTTAACGATCTGTAAACATACATAGAGAGTTCCTATTACGCAAGGTTCAAACAGACTGGATGAAAGCCCTTCCATAAAGAACCCTTTAGGTGATGATGCTAAAATTATTTT: 0.272 ratio
ATCTTCCCCCTCTTCCTTGCCCCACCAGCTCACCTTCCCGGGTTGTTTACTTTGAGCAAAGTAAACAAAGCCGGCATTCGTTAACCCTCTTCTGGCGCAAACTGCTGTTTACTTTGGATCTAACATGGTCCTTTGGCGACGCCAGGCTCCGGGAGAGCAAAGCACCGTGTCAGGGCCATGATCCGGGGTGGCC: 0.542 ratio
AACAGATTAGCTGATCTCTAATGGCCCTAGGAGAAGATCTTGTATTGCTTCAAAATCTTTTCTGATTCTCATCACTCAACCTTCTTGGCTATGTAATCTAAGGAAGCTTTCCTTTTGTTTTCCAGACGTTTGGAAAACAAAATTTTCCAGAGCTGTGCATCTGCCAGGAAATGTTTCTTTTAACCTGATATCA: -0.0465 ratio

Study 3 — method: protein-binding microarray; molecule type: double-stranded DNA, one strand shown; medium: in vitro; tested at: 250 nM; notes: 60-bp whole probe; together with: salmon DNA 0.4 mg/ml; reference: random background probes; reading: higher = stronger binding; measurement: log fluorescence; constant ends, left off below: GCCTAGCAC … GTCTTGATTCGCTTGACGCTGCTG
Target: Interferon regulatory factor 5, full length, phosphomimetic (IRF5, Homo sapiens, UniProt Q13568-2, residues 1-514, K96S/S451D/S453D/S456D/S462D)
TTAGGACTGCTACTGCTTCAGTGCTAG: -0.265 z-score
TTAGATATCGGATATCGATTAGTGCTA: 3.43 z-score
CACGGTATCGGGTTTCGGGACGTGCTA: 3.86 z-score
CCAGTTCTGGGAAATATTTACGTGCTA: 0.101 z-score
AACGATTTCGGGTATCGAGACGTGCTA: 5.1 z-score
GGGCCTAGCCATTATGAGTCTGTGCTA: -0.462 z-score
GACGGATTCCTTTTCCTGACGTGCTAG: 0.266 z-score
TTAGGTCTCCTTTTCATTTAGTGCTAG: 0.716 z-score
GACGATCTCAGTTTCGAAACGTGCTAG: 6.15 z-score
TTAGGTATCGGTTTTGGTTAGTGCTAG: 8.17 z-score
TCAGATTTCGGGACTGGATTAGTGCTA: 1.96 z-score
GACGATTTAAGACTGGAGACGTGCTAG: -0.0904 z-score
GACGATATCAGATTCGAGACGTGCTAG: 0.777 z-score
TTATGACTGGGTTTCGGTTAGTGCTAG: 8.87 z-score
TTAGGTTTCGGATTTCGGTTAGTGCTA: 8.27 z-score
GACGGTTTCCTTTCCCTGATGTGCTAG: 1.22 z-score
GATGGTTTCGACTTTCGGGACGTGCTA: 8.52 z-score
GATGATATCAGTCTCGAGACGTGCTAG: 1.53 z-score
TTAGGTCTCCTTGTCCTTTAGTGCTAG: -0.303 z-score
GACGGTATCCTTATCCAGACGTGCTAG: -0.00367 z-score
TCACACTCCAGTCTGGGACTGTGCTAG: -0.267 z-score
TAAGATTTCGGGTATCGATTAGTGCTA: 6.7 z-score
TCAGTTTTCAATTTTTGACTGTGCTAG: 1.48 z-score
TCAGGTCTCCTACTGCTTTAGTGCTAG: -0.303 z-score

Study 4 — method: RNA Bind-n-Seq; molecule type: RNA; medium: in vitro; tested at: 365 nM; reference: no-protein control; reading: higher = stronger binding; measurement: RBNS enrichment (R)
Target: RNA binding protein fox-1 homolog 2, RRM domain, GST-SBP tag (RBFOX2, Homo sapiens, UniProt O43251-10, residues 100-194)
Notes: natural RNA segment, single round, ends assumed
Constant ends, left off below: GGGAGUUCUACAGUCCGACGAUC … UGGAAUUCUCGGGUGCCAA
Residues (chain): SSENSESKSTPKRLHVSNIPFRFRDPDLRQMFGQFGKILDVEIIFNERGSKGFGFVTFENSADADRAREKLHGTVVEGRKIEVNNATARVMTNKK
UGUGACCAGCAUGGUCCAGGAAAAAAAAAAAGACAAAAAAUCUAGAAAAUAAAAUUGGUAAAAUCUCGCUCACUGUUGUCUGUGUUUUCUGGGAACAGGAGUGGGGUGAU: 0.713
UACAACUCUGAUUUUAAAACAAAAAAAUCUUUACAACAAGCUAUAUAGGGACAUACCAGAUGUUGCAGUGAUUUUAGCUAUCAACAAACUGUUAACCAUGUACAAUAUUU: 0.518
GCAGGAGCAGCAGAGCAGCAGCUAGAGACCCCUUUGGCCACACCUUCCAGGCACUGGCCUGAUGCCCCGCCCUGGUGCUCUCCCCAGGCUCCCUCCUCAGCCUCCUGCCC: 0.331
AGCCGGAGGAGGCUGAAGACAUCAAGAAUAAACGAGGGCAGGAGUGGCGGAGCAUUGCCUUUCUAAGAACUGUGACUGUGGCCCAUCGAGACCUAGCCUGGUUUUCCCUU: 0.883
UUGAGAAGUAGCAGGGAGCAGGGCAUCUUGGGAGCUGGUAUUGUGCUUGGUCAGAGUAGCUAAGCCCUGGUCUUAGGCCUGAGCCUGGAGUCUGCCCCCAUUUCCUUUUC: 0.633
AUAAGCUUACCAGUGACCUUGUUCACUUUGAGUCAGGGAACGUAUUUGUAAAAUUAACACUAAAGAUGCAUGUGAGUCAUUUCACCAAAAGGAACUCUAUUAAUAAGCUA: 4.01
UUUUCCUACAUCAUUUAGAAUUUUAUUUCCCUGAUUCAGUUUUUGCUGCUGUGAAACAGCUCUGAUGAACACUAAAUAUUAAUUUCAAUUAGCUAGAUUGUACAUACUUG: 0.258
CCCAAAGAAGCAAGCCUUAGAACCGAGCAGGUGAAUCUUAGAGAGUCAGCCAAGGACAGUGCAGAGUCACGGGUUGGGAGGUAUGUGGGCUAGGGUAUGUGGUUUCCUCA: 1.19
GUGCUCAUCCCCUUCCCUCCCGCUGCCCUCGGCGCCGCACUGUCAGCUCUGGGGCUGGCUGUCCUCCGCUCUGCGCCUGUCAGGCAGGGCACGUGCUCACAGCCCUGGGU: 1.57
CCCCUGCACAUCAGGUCUGAGAGCUAGGAGCUGGGACAGGAGUCGUCUGCAGGAGCUCAGUUGGCUACAGAGGCCUGGUUUUAGAGACCAAGCCCUCCUCUGUGUCCAGU: 0.47
UUCACAUAUUUUCGACUUGAGAAAUGCUUGUGGUAUGUGUUUUCCAAACUGCCCCCUAUAUGUAAAGUUCAGUUUAACCACUGAUUGCCUUGUUAUUACUAGGUUUUUUG: 1.62
GAUUUUUUAAUAUGUGAACACUGCAAAAAUGUGUUUAAAUUAUCUUUUUUAAAACCUAUUCAGGAUUAUUAGCCUGGACUUGGACACAGAGUUUGUAAAUAAAGGUGUCU: 1.63
